Results from different studies.
Lines come from different studies, so protocols differ.
Organism: Klebsiella pneumoniae

Structure (SMILES) | assay | system | conditions | MIC
C#CCO/N=C(\C(=O)N[C@@H]1C(=O)N(OS(=O)(=O)O)C1(C)C)c1nsc(N)n1 | agar dilution | 16-14, ESBL-producing |  | 32 µg/mL
CCCCCCCCCCn1cc[n+](CCCCOc2cc(OCCCC[n+]3ccn(CCCCCCCCCC)c3)cc(OCCCC[n+]3ccn(CCCCCCCCCC)c3)c2)c1.[Br-].[Br-].[Br-] |  | ATCC 4352 |  | 1 µM
COC(=O)CNC(=O)c1ccc(NC(=O)c2[nH]c(C)c(Cl)c2Cl)c(N2CCN(C(=O)OC(C)(C)C)CC2)c1 | microbial growth, broth dilution | ATCC700603 |  | > 32 µg/mL
CC[C@H]1OC(=O)[C@H](C)[C@@H](OC(=O)Cc2ccc(N)cc2)[C@H](C)[C@@H](O[C@@H]2O[C@H](C)C[C@H](N(C)C)[C@H]2O)[C@](C)(OC)C[C@@H](C)C(=O)[C@H](C)[C@@H](O)[C@]1(C)O | microbial growth | ATCC700603 |  | > 32 µg/mL
CCCCCC[N+](C)(C)CCCCCCOc1cc(OCCCCCC[N+](C)(C)CCCCCC)cc(OCCCCCC[N+](C)(C)CCCCCC)c1.[Br-].[Br-].[Br-] |  | ATCC 4352 |  | 16 µM
CC[C@H](C)[C@@H]1NC(=O)[C@@H](CC(C)C)NC(=O)[C@H](CCN)NC(=O)[C@@H](NC(=O)[C@@H](CO)NC(=O)[C@@H](NC(=O)[C@H](CCN)NC(=O)c2ccc(-c3ccccc3)cc2)[C@@H](C)O)CCNC(=O)[C@H](CC(C)C)NC(=O)[C@H](CCN)NC(=O)[C@H](CCN)NC1=O | broth microdilution | ATCC 13883, colistin-susceptible |  | 2 to 4 µg/mL
CCCCCCCCCCCC[N+](C)(C)CCCCCCCCOc1cc(OCCCCCCCC[N+](C)(C)CCCCCCCCCCCC)cc(OCCCCCCCC[N+](C)(C)CCCCCCCCCCCC)c1.[Br-].[Br-].[Br-] |  | ATCC 4352 |  | 125 µM
C=CCO/N=C(\C(=O)N[C@@H]1C(=O)N(OS(=O)(=O)O)C1(C)C)c1csc(N)n1 | agar dilution | 16-14, ESBL-producing |  | 0.5 µg/mL
COc1c(NC(=O)c2ccc(NC(=O)c3ccc(NC(=O)[C@H](Cc4c[nH]nn4)NC(=O)c4ccc(NC(=O)/C(C)=C/c5ccc(O)cc5)cc4)cc3)c(OC)c2O)ccc(C(=O)O)c1O | microbial growth, broth dilution |  |  | 16 µg/mL
CCCCCCCCCCn1cc[n+](CCCCCCCCCCOc2cc(OCCCCCCCCCC[n+]3ccn(CCCCCCCCCC)c3)cc(OCCCCCCCCCC[n+]3ccn(CCCCCCCCCC)c3)c2)c1.[Br-].[Br-].[Br-] |  | ATCC 4352 |  | 125 µM
CC(=O)NC[C@H]1CN(c2ccc(N3CCN(C(=O)CN)CC3)c(F)c2)C(=O)O1 | microbial growth, broth dilution | ATCC27736 |  | > 128 µM
C=CCO/N=C(\C(=O)N[C@@H]1C(=O)N(S(=O)(=O)O)[C@H]1C)c1csc(N)n1 | agar dilution | 16-14 ESBL |  | 8 µg/mL
CC[C@H](C)[C@H](NC(=O)[C@H](CCC(N)=O)NC(=O)[C@H](Cc1ccccc1)NC(=O)[C@H](CC(N)=O)NC(=O)[C@H](CCCCN)NC(=O)[C@H](CC(C)C)NC(=O)[C@H](CCCNC(=N)N)NC(=O)[C@H](CCCCN)NC(=O)[C@H](CCCCN)NC(=O)[C@@H](NC(=O)[C@H](CO)NC(=O)[C@H](CCCCN)NC(=O)CNC(=O)[C@H](CC(C)C)NC(=O)[C@H](CCCCN)NC(=O)[C@H](CCCCN)NC(=O)[C@H](CC(C)C)NC(=O)[C@H](CCCCN)NC(=O)[C@H](CCCCN)NC(=O)[C@H](CCCNC(=N)N)NC(=O)[C@H](CC(C)C)NC(=O)CNC(=O)[C@@H](N)CCCNC(=N)N)[C@@H](C)CC)C(=O)NCC(=O)N[C@@H](Cc1ccccc1)C(=O)N[C@@H](CO)C(=O)N[C@H](C(=O)N1CCC[C@H]1C(=O)N[C@@H](Cc1ccccc1)C(=O)N[C@@H](C)C(=O)NCC(=O)O)C(C)C | broth microdilution | ATCC 43816 |  | 2.36 µM
c1ccc(CN2CCOCCOCCN(CCCCCCCCCCN3CCOCCOCCN(CCCCCCCCCCN4CCOCCOCCN(Cc5ccccc5)CCOCCOCC4)CCOCCOCC3)CCOCCOCC2)cc1 |  | ATCC BAA-2146 |  | 56 µM
CC1(C)[C@H](NC(=O)/C(=N\OCc2c(Cl)cccc2Cl)c2csc(N)n2)C(=O)N1OS(=O)(=O)O | agar dilution | ATCC 700603, ESBL-producing |  | 64 µg/mL
CC(C)C[C@@H]1NC(=O)[C@@H](CC(C)C)NC(=O)[C@H](CCN)NC(=O)[C@@H](NC(=O)[C@H](CCN)NC(=O)[C@@H](NC(=O)CN=[N+]=[N-])[C@@H](C)O)CCNC(=O)[C@H]([C@@H](C)O)NC(=O)[C@H](CCN)NC(=O)[C@H](CCN)NC1=O | broth microdilution | ATCC 27736, cation-adjusted Mueller-Hinton broth | 18 to 20 h, 37 °C, 0.002% polysorbate 80 | 32 µg/mL
CC[C@H]1OC(=O)[C@H](C)[C@@H](O[C@H]2C[C@@](C)(OC)[C@@H](O)[C@H](C)O2)[C@H](C)[C@@H](O[C@@H]2O[C@H](C)C[C@H](N(C)C)[C@H]2O)[C@](C)(OC)C[C@@H](C)C(=O)[C@H](C)[C@@H](O)[C@]1(C)O | microbial growth | ATCC700603 |  | > 32 µg/mL
Cc1c(CN(C)C(=O)/C=C/c2cnc3c(c2)CC(N)C(=O)N3)oc2ccccc12 (stereo not drawn) | broth microdilution | AR-0555 |  | 32 µg/mL
CC[C@H]1OC(=O)[C@H](C)[C@@H](OC(=O)Cc2c(F)cccc2F)[C@H](C)[C@@H](O[C@@H]2O[C@H](C)C[C@H](N(C)C)[C@H]2O)[C@](C)(OC)C[C@@H](C)C(=O)[C@H](C)[C@@H](O)[C@]1(C)O | microbial growth | ATCC700603 |  | > 32 µg/mL
CC1(C)[C@H](NC(=O)/C(=N\OCC(=O)N2CCC[C@@H]2C(=O)O)c2nsc(N)n2)C(=O)N1OS(=O)(=O)O | agar dilution | 16-14, ESBL-producing |  | 16 µg/mL
CC(C)C[C@@H]1NC(=O)[C@@H](CC(C)C)NC(=O)[C@H](CCN)NC(=O)[C@@H](NC(=O)[C@H](CCN)NC(=O)[C@@H](N)[C@@H](C)O)CCNC(=O)[C@H]([C@@H](C)O)NC(=O)[C@H](CCN)NC(=O)[C@H](CCN)NC1=O | broth microdilution | ATCC 13883, cation-adjusted Mueller-Hinton broth | 18 to 20 h, 37 °C, 0.002% polysorbate 80 | > 128 µg/mL
C#CCNC(=O)C1(O/N=C(\C(=O)N[C@@H]2C(=O)N(OS(=O)(=O)O)C2(C)C)c2csc(N)n2)CC1 | agar dilution | ATCC 700603 ESBL |  | 16 µg/mL
CC(C)C[C@@H]1NC(=O)[C@@H](CC(C)C)NC(=O)[C@H](CCN)NC(=O)[C@@H](NC(=O)[C@H](CCN)NC(=O)[C@@H](NC(=O)CCOCCOCCOCCN=[N+]=[N-])[C@@H](C)O)CCNC(=O)[C@H]([C@@H](C)O)NC(=O)[C@H](CCN)NC(=O)[C@H](CCN)NC1=O | broth microdilution | ATCC 13883, cation-adjusted Mueller-Hinton broth | 18 to 20 h, 37 °C, 0.002% polysorbate 80 | 32 µg/mL
CC1(C)[C@H](NC(=O)/C(=N\OC2(C(=O)O)CCCC2)c2csc(N)n2)C(=O)N1OS(=O)(=O)O | agar dilution | 16-14, ESBL-producing |  | 0.25 µg/mL
CCCCCCCCCCCC[N+](C)(C)CCCCOc1cc(OCCCC[N+](C)(C)CCCCCCCCCCCC)cc(OCCCC[N+](C)(C)CCCCCCCCCCCC)c1.[Br-].[Br-].[Br-] |  | ATCC 4352 |  | 4 µM
CN[C@H](CC(C)C)C(=O)N[C@H]1C(=O)N[C@@H](CC(N)=O)C(=O)N[C@H]2C(=O)N[C@H]3C(=O)N[C@H](C(=O)N[C@H](C(=O)O)c4cc(O)cc(O)c4-c4cc3ccc4O)[C@H](O)c3ccc(c(Cl)c3)Oc3cc2cc(c3O[C@@H]2O[C@H](CO)[C@@H](O)[C@H](O)[C@H]2O[C@H]2C[C@](C)(NCc3ccc(OCc4cn(CC(=O)N[C@H](C(=O)N[C@@H](CCN)C(=O)N[C@H]5CCNC(=O)[C@H]([C@@H](C)O)NC(=O)[C@H](CCN)NC(=O)[C@H](CCN)NC(=O)[C@H](CC(C)C)NC(=O)[C@@H](CC(C)C)NC(=O)[C@H](CCN)NC5=O)[C@@H](C)O)nn4)c(OC)c3)[C@H](O)[C@H](C)O2)Oc2ccc(cc2Cl)[C@H]1O | broth microdilution | ATCC 13883, cation-adjusted Mueller-Hinton broth | 18 to 20 h, 37 °C, 0.002% polysorbate 80 | 8 µg/mL
CC1(C)[C@H](NC(=O)/C(=N\OCc2cc(=O)c(O)cn2O)c2csc(N)n2)C(=O)N1OS(=O)(=O)O | agar dilution | ATCC 700603 ESBL |  | 32 µg/mL

Some of these lines once more:
Structure (SMILES) | assay | system | conditions | MIC
CC[C@H](C)[C@H](NC(=O)[C@H](CCC(N)=O)NC(=O)[C@H](Cc1ccccc1)NC(=O)[C@H](CC(N)=O)NC(=O)[C@H](CCCCN)NC(=O)[C@H](CC(C)C)NC(=O)[C@H](CCCNC(=N)N)NC(=O)[C@H](CCCCN)NC(=O)[C@H](CCCCN)NC(=O)[C@@H](NC(=O)[C@H](CO)NC(=O)[C@H](CCCCN)NC(=O)CNC(=O)[C@H](CC(C)C)NC(=O)[C@H](CCCCN)NC(=O)[C@H](CCCCN)NC(=O)[C@H](CC(C)C)NC(=O)[C@H](CCCCN)NC(=O)[C@H](CCCCN)NC(=O)[C@H](CCCNC(=N)N)NC(=O)[C@H](CC(C)C)NC(=O)CNC(=O)[C@@H](N)CCCNC(=N)N)[C@@H](C)CC)C(=O)NCC(=O)N[C@@H](Cc1ccccc1)C(=O)N[C@@H](CO)C(=O)N[C@H](C(=O)N1CCC[C@H]1C(=O)N[C@@H](Cc1ccccc1)C(=O)N[C@@H](C)C(=O)NCC(=O)O)C(C)C | broth microdilution | ATCC 43816 |  | 2.36 µM
CCCCCC[N+](C)(C)CCCCCCOc1cc(OCCCCCC[N+](C)(C)CCCCCC)cc(OCCCCCC[N+](C)(C)CCCCCC)c1.[Br-].[Br-].[Br-] |  | ATCC 4352 |  | 16 µM
CCCCCCCCCCCC[N+](C)(C)CCCCCCCCOc1cc(OCCCCCCCC[N+](C)(C)CCCCCCCCCCCC)cc(OCCCCCCCC[N+](C)(C)CCCCCCCCCCCC)c1.[Br-].[Br-].[Br-] |  | ATCC 4352 |  | 125 µM
